Measured values of several laboratories.

Structure (SMILES) | organism | assay | system | conditions | MIC
C[C@H](NC(=O)[C@H](CCCNC(=N)N)NC(=O)[C@H](Cc1c[nH]c2ccccc12)NC(=O)[C@H](CCCNC(=N)N)NC(=O)[C@H](Cc1c[nH]c2ccccc12)NC(=O)[C@H](Cc1c[nH]c2ccccc12)NC(=O)[C@H](Cc1c[nH]c2ccccc12)NC(=O)[C@H](CCCNC(=N)N)NC(=O)[C@H](Cc1c[nH]c2ccccc12)NC(=O)[C@@H](N)CCCNC(=N)N)C(N)=O | Candida tropicalis | broth microdilution | CGMCC 2.192, RPMI 1640-MOPS | 48 h, 30 °C | 2 µM
CC(C)C[C@@H](NC(=O)[C@H](C)NC(=O)CNC(=O)[C@@H](NC=O)C(C)C)C(=O)N[C@@H](C)C(=O)N[C@@H](C(=O)N[C@H](C(=O)N[C@@H](C(=O)N[C@@H](Cc1c[nH]c2ccccc12)C(=O)N[C@H](CC(C)C)C(=O)N[C@@H](Cc1cccc2cc[nH]c12)C(=O)N[C@H](CC(C)C)C(=O)N[C@@H](Cc1c[nH]c2ccccc12)C(=O)N[C@H](CC(C)C)C(=O)N[C@@H](Cc1c[nH]c2ccccc12)C(=O)NCCO)C(C)C)C(C)C)C(C)C | Streptococcus agalactiae | broth microdilution | JCM 5671 |  | 17 µM
CC(C)C[C@H](NC(=O)[C@H](CCCNC(=N)N)NC(=O)[C@H](Cc1c[nH]c2ccccc12)NC(=O)[C@H](CCCNC(=N)N)NC(=O)[C@H](Cc1c[nH]c2ccccc12)NC(=O)[C@H](Cc1c[nH]c2ccccc12)NC(=O)[C@H](Cc1c[nH]c2ccccc12)NC(=O)[C@H](CCCNC(=N)N)NC(=O)[C@H](Cc1c[nH]c2ccccc12)NC(=O)[C@H](CCCNC(=N)N)NC(=O)CN)C(N)=O | Candida albicans |  | CGMCC 2.209 | no added salts | 32 µM
CC[C@H](C)[C@H](NC(=O)[C@H](CCCCN)NC(=O)[C@@H](NC(=O)[C@H](Cc1ccc(O)cc1)NC(=O)[C@H](CCCCN)NC(=O)[C@H](CCCCN)NC(=O)CNC(=O)[C@H](CCCCN)NC(=O)[C@@H](NC(=O)[C@H](C)NC(=O)[C@H](CC(C)C)NC(=O)[C@H](Cc1c[nH]c2ccccc12)NC(=O)CNC(=O)[C@@H](NC(=O)[C@H](Cc1ccccc1)NC(=O)[C@H](CCCCN)NC(=O)[C@H](CC(C)C)NC(=O)[C@H](Cc1ccccc1)NC(=O)[C@H](C)NC(=O)CNC(=O)[C@@H](N)CCSC)C(C)C)[C@@H](C)O)C(C)C)C(=O)N[C@@H](C)C(=O)N[C@@H](Cc1c[nH]c2ccccc12)C(=O)N[C@@H](CC(=O)O)C(=O)N[C@@H](Cc1c[nH]cn1)C(=O)N[C@@H](CCCCN)C(=O)NCC(=O)N[C@H](C(=O)N[C@H](C(=O)N[C@@H](CCSC)C(=O)N[C@@H](CCCCN)C(=O)N[C@@H](Cc1c[nH]c2ccccc12)C(=O)N[C@@H](CC(C)C)C(=O)N[C@@H](CC(N)=O)C(=O)N[C@@H](C)C(=O)NCC(=O)N[C@@H](CCC(N)=O)C(=O)N[C@H](C(=O)N[C@@H](Cc1ccccc1)C(=O)N[C@H](C(=O)N[C@@H](Cc1c[nH]c2ccccc12)C(=O)N[C@H](C(=O)N[C@@H](Cc1ccc(O)cc1)C(=O)N[C@@H](CCC(=O)O)C(=O)N[C@@H](CCC(N)=O)C(=O)N[C@H](C(=O)N[C@@H](CCCCN)C(=O)N[C@@H](CCCCN)C(=O)N[C@@H](CC(C)C)C(=O)N[C@@H](Cc1c[nH]c2ccccc12)C(=O)N[C@H](C(=O)O)[C@@H](C)O)[C@@H](C)CC)C(C)C)[C@@H](C)O)[C@@H](C)O)[C@@H](C)CC)[C@@H](C)O | Streptococcus agalactiae | broth microdilution |  | 37 °C | 62.5 mg/L
CC(C)C[C@H](NC(=O)[C@H](C)NC(=O)[C@@H](NC(=O)[C@H](CCCNC(=N)N)NC(=O)[C@H](CC(C)C)NC(=O)[C@H](Cc1c[nH]c2ccccc12)NC(=O)[C@@H]1CCCN1C(=O)[C@@H](N)CCCCN)C(C)C)C(=O)N[C@@H](CS)C(=O)N1CCC[C@H]1C(=O)NCC(=O)O | Staphylococcus chromogenes | broth microdilution | G0791A |  | 64 µM
CC(C)(C)OCC1NC(=O)C(C(=O)NC(C(=O)NC2C(=O)N3C2SC(C)(C)C3C(=O)O)c2ccccc2)=C1O (stereo not drawn) | Escherichia coli | broth microdilution | Keio mutant JW0146-2 | 18 h, ferric hydroxamate uptake gene | 50 mg/L
N=C(N)NCCC[C@H](NC(=O)[C@H](Cc1c[nH]c2ccccc12)NC(=O)[C@H](CCCNC(=N)N)NC(=O)[C@H](Cc1c[nH]c2ccccc12)NC(=O)[C@H](Cc1c[nH]c2ccccc12)NC(=O)[C@H](Cc1c[nH]c2ccccc12)NC(=O)[C@H](CCCNC(=N)N)NC(=O)[C@H](Cc1c[nH]c2ccccc12)NC(=O)[C@@H](N)CCCNC(=N)N)C(=O)N[C@@H](Cc1ccccc1)C(N)=O | Candida albicans | broth microdilution | 56214, RPMI 1640-MOPS | 48 h, 30 °C | 8 µM
CC1(C)SC2C(NC(=O)C(NC(=O)C3=C(O)C(c4ccccc4)NC3=O)c3ccccc3)C(=O)N2C1C(=O)O (stereo not drawn) | Escherichia coli | broth microdilution | Keio mutant JW0587-1 | 18 h, enterobactin-related gene | 25 mg/L
O=C(O)CNC(=O)CO/N=c1\cc2n(-c3ccc(Cl)cc3)c3ccccc3nc-2cc1Nc1ccc(Cl)cc1 | Neisseria gonorrhoeae | bacterial growth | 1130991, multidrug-resistant | 24 h | 3.75 µM
CC1(C)SC2C(NC(=O)C(NC(=O)C3=C(O)C(Cc4ccc(F)cc4)NC3=O)c3ccccc3)C(=O)N2C1C(=O)O (stereo not drawn) | Escherichia coli |  | ATCC 35218, low-level TEM-1 | without clavulanic acid | > 200 mg/L
C=CCO/N=c1\cc2n(-c3ccc(Cl)cc3)c3ccccc3nc-2cc1Nc1ccc(Cl)cc1 | Neisseria gonorrhoeae | bacterial growth | 1130991, multidrug-resistant | 24 h | > 30 µM
CC1(C)SC2C(NC(=O)C(NC(=O)C3=C(O)C(Cc4ccccc4)NC3=O)c3ccccc3)C(=O)N2C1C(=O)O (stereo not drawn) | Escherichia coli | broth microdilution | isolate IU, CTX-M-14, TEM-1 | no clavulanic acid | > 200 mg/L
CC(=O)N1CCN(c2ccc(OCC3COC(Cn4ccnc4)(c4ccc(Cl)cc4Cl)O3)cc2)CC1 (stereo not drawn) | Candida tropicalis | broth microdilution | CGMCC 2.192, RPMI 1640-MOPS | 48 h, 30 °C | 4 µM
CC[C@H](C)[C@H](NC(=O)[C@H](CC(N)=O)NC(=O)[C@H](CCCCN)NC(=O)[C@H](CC(=O)O)NC(=O)[C@H](Cc1ccc(O)cc1)NC(=O)[C@H](Cc1ccc(O)cc1)NC(=O)[C@H](Cc1ccc(O)cc1)NC(=O)[C@H](CCCNC(=N)N)NC(=O)[C@H](CC(C)C)NC(=O)CNC(=O)[C@H](CCCNC(=N)N)NC(=O)[C@@H](N)CO)C(=O)N[C@H](C(=O)N[C@@H](Cc1c[nH]cn1)C(=O)N[C@@H](CCCCN)C(=O)N[C@H](C(=O)N[C@@H](C)C(=O)NCC(=O)N[C@@H](CCCCN)C(=O)N[C@@H](CCCNC(=N)N)C(=O)N[C@@H](Cc1ccc(O)cc1)C(=O)N[C@H](C(=O)N[C@@H](Cc1ccc(O)cc1)C(=O)N[C@@H](CCCNC(=N)N)C(=O)N[C@@H](Cc1ccccc1)C(=O)N[C@H](C(=O)O)C(C)C)C(C)C)[C@@H](C)O)[C@@H](C)CC | Micrococcus luteus |  | NCTC 2665 |  | 12.5 mg/L
CC[C@H](C)[C@H](NC(=O)[C@H](CCCNC(=N)N)NC(=O)[C@H](Cc1c[nH]c2ccccc12)NC(=O)[C@H](CCCNC(=N)N)NC(=O)[C@H](Cc1c[nH]c2ccccc12)NC(=O)[C@H](Cc1c[nH]c2ccccc12)NC(=O)[C@H](Cc1c[nH]c2ccccc12)NC(=O)[C@H](CCCNC(=N)N)NC(=O)[C@H](Cc1c[nH]c2ccccc12)NC(=O)[C@@H](N)CCCNC(=N)N)C(N)=O | Candida albicans | broth microdilution | CGMCC 2.209, RPMI 1640-MOPS | 48 h, 30 °C, added: CaCl2 2 mM | 32 µM
Clc1ccc(Nc2cc3nc4ccccc4n(-c4ccc(Cl)cc4)c-3c/c2=N\OCc2ccccc2)cc1 | Neisseria gonorrhoeae | bacterial growth | 700825, streptomycin-resistant | 24 h | > 30 µM
N=C(N)NCCC[C@H](NC(=O)CCCCCNC(=O)[C@H](CCCNC(=N)N)NC(=O)[C@H](CCCNC(=N)N)NC(=O)CCCCCNC(=O)[C@H](CCCNC(=N)N)NC(=O)[C@H](CCCNC(=N)N)NC(=O)CCCCCNC(=O)[C@H](CCCNC(=N)N)NC(=O)[C@H](CCCNC(=N)N)NC(=O)CCCCCNC(=O)[C@@H](N)CCCNC(=N)N)C(=O)NCCCCCC(=O)NCCC(=O)O | Escherichia coli |  | ATCC 25922 |  | 96 µM
CC(C)C[C@@H]1NC(=O)[C@@H](Cc2ccccc2)NC(=O)[C@H](CCN)NC(=O)[C@@H](NC(=O)[C@H](CCN)NC(=O)[C@@H](N)[C@@H](C)O)CCNC(=O)[C@H]([C@@H](C)O)NC(=O)[C@H](CCN)NC(=O)[C@H](CCN)NC1=O | Escherichia coli | rifampicin MIC with synergist, checkerboard | BW25113 mcr-1 | concentration not given, added: rifampicin | 0.75 mg/L
